Assay results pooled from the literature.
Compare with care: the assays were run in different laboratories. “And” joins repeats or separate records; there may be more than shown. ± marks the error that the study gave.
Cell line: A549

The IC50 of `COC(=O)[C@H](C(C)C)N(C)C(=O)[C@H](C(C)C)N(C)C(=O)[C@@H]1CCCN1C(=O)[C@H](C)N(C)C(=O)OC(C)(C)C` is reported as 2.94 µM and 3.61 µM and 3.12 µM (cell growth or viability, SRB).
`CC(C)(C)C(=O)OCOP(=O)(OCOC(=O)C(C)(C)C)C1CCCN(O)C1=O` (stereo not shown) has a Log10TGI of > -4 log M.
`Cc1ccc(C(C)C)cc1.F[P-](F)(F)(F)(F)F.[Cl][Os+]1[N]2C=CC=c3ccc4c(c32)[N]1C=CC=4` gave an IC50 of 82.8 µM (cell growth or viability, MTT).
`Cc1ccccc1/C=C/C(=O)N[C@@H]1C(=O)N[C@@H](Cc2ccccc2)C(=O)N[C@H](CC(C)C)C(=O)N[C@@H](C(C)C)C(=O)N[C@@H](C)C(=O)N[C@H](CCC(N)=O)C(=O)NCC(=O)N2CCC[C@H]2C(=O)N[C@@H](CCCNC(=N)N)C(=O)N[C@H](Cc2ccccc2)C(=O)O[C@H]1C` has an IC50 of > 20 µM.
The viability of `O=c1n(CCNCCOS(=O)(=O)c2ccccc2)c(=O)n(S(=O)(=O)c2ccccc2)c(=O)n1S(=O)(=O)c1ccccc1` is reported as 45.6% (cell growth or viability, MTT; 12.5 µg/mL, 48 h).
`O=C1C=CC(=O)c2ccccc21` has an IC50 of 53.5 µM (cell growth or viability, MTT).
`CC(C)C12OC1C1OC13C1(C)CCC4=C(COC4=O)C1CC1OC13C2OC(=O)CCC(=O)OC1OC(CO)C(O)C(O)C1O` (stereo not shown) has an IC50 of 1.7 µM (cell growth or viability, XTT; 47 h).
The IC50 of `O=C1C(Cl)=C(Cl)C(=O)c2ccccc21` is reported as 38.1 µM (cell growth or viability, MTT).
The inhibition of `C[C@H]1O[C@@H](O[C@H]2CC[C@@]3(C)[C@H](CC[C@@H]4[C@@H]3C[C@@H](O)[C@]3(C)[C@@H](C5=CC(=O)OC5)CC[C@]43O)C2)C[C@H](O)[C@@H]1O[C@@H]1O[C@H](CO)[C@@H](O)[C@H](O)[C@H]1O` is reported as 74.7% (cell growth or viability, MTT; 5 µM, 24 h).
`CCC1CC(c2ccc(C(=O)O)cc2C)=NN1c1ccc(C#N)c(Cl)c1` (stereo not shown) gave an EC50 of > 50 µM (cell growth or viability; 48 h).
`C#CCCCC[C@H](C)C[C@@H](C)C(=O)N(C)[C@H](C(=O)N(C)[C@@H](Cc1ccccc1)C(=O)N1CCC[C@H]1C(=O)N1CCC[C@H]1C(C)=O)C(C)C` gave an IC50 of 0.149 µM and 0.16 µM and 0.183 µM (cell growth or viability, SRB).
With `C[C@H]1O[C@@H](O[C@H]2[C@@H](O)C[C@H](O[C@H]3[C@@H](O)C[C@H](O[C@H]4CC[C@@]5(C)[C@H](CC[C@@H]6[C@@H]5C[C@@H](O)[C@]5(C)[C@@H](C7=CC(=O)OC7)[C@@H](O)C[C@]65O)C4)O[C@@H]3C)O[C@@H]2C)C[C@H](O)[C@@H]1O` the inhibition was 70.6% (cell growth or viability, MTT; 5 µM, 24 h).
`Cc1ccc(C(C)C)cc1.Cc1ccc(C(C)C)cc1.Cc1ccc(C(C)C)cc1.Cc1ccc(C(C)C)cc1.O=S(=O)(O)C(F)(F)F.O=S(=O)(O)C(F)(F)F.O=S(=O)(O)C(F)(F)F.O=S(=O)(O)C(F)(F)F.c1ccc2c3c4ccccc4c(c2c1)-c1cn(nn1)-c1cc[n+](cc1)[Ru-]1[O]c2ccc4c5c(ccc(c25)=[O+]1)=[O+][Ru-]([O]4)[n+]1ccc(cc1)-n1cc(nn1)-c1c2ccccc2c(c2ccccc12)-c1cn(nn1)-c1cc[n+](cc1)[Ru-]1[O]c2ccc4c5c(ccc(c25)=[O+]1)=[O+][Ru-]([O]4)[n+]1ccc(cc1)-n1cc-3nn1` has an IC50 of 11.9 µM (cell growth or viability, MTT; 24 h).
With `C[C@H]1O[C@@H](O[C@H]2CC[C@@]3(C)[C@H](CC[C@@H]4[C@@H]3CC[C@]3(C)[C@@H](C5=CC(=O)OC5)[C@@H](O)C[C@]43O)C2)C[C@H](O)[C@@H]1O` the inhibition was 74.5% (cell growth or viability, MTT; 5 µM, 24 h).
For `CC(=O)NCSC[C@H](NC(=O)[C@@H]1CCCN1C(=O)[C@H](C)NC(=O)[C@@H](NC(=O)CNC(=O)[C@@H](NC(=O)[C@H](Cc1c[nH]c2ccccc12)NC(=O)[C@H](C)NC(=O)CNC(=O)[C@H](CO)NC(=O)[C@H](C)NC(=O)[C@@H]1CCCN1C(=O)[C@H](Cc1c[nH]c2ccccc12)NC(=O)[C@H](C)NC(=O)[C@H](C)NC(=O)[C@@H](N)Cc1ccc(O)cc1)[C@@H](C)O)[C@@H](C)O)C(=O)N[C@@H](CO)C(=O)N[C@@H](C)C(=O)NCC(=O)N[C@H](C(=O)NCCOCCOCCOCCOCCOCCOCCOCCOCCOCCOCCOCCOCCC(=O)N[C@@H](CS)C(N)=O)[C@@H](C)O`, the selectivity ratio was 17 ± 3.9 (phage binding; baseline: targeting over control phage).
`O=C1C=CC(=C(c2ccc(O)cc2)c2c(C#Cc3ccc(O)cc3)cccc2-c2ccc(O)cc2)C=C1` gave an IC50 of 15.3 µM (cell growth or viability, MTT; 48 h).
`Cc1cc(=O)oc2cc(OCCCCCC[Se]C#N)ccc12` has a GI50 of 4.3 µM (cell growth or viability, SRB).
`CCCc1cc2cc(-n3nc(C)c4c3CC3(CCC3)CC4=O)cc(N3CCC(O)CC3)c2c(=O)[nH]1` gave an IC50 of 13.1 µM (cell growth or viability, MTS).
`O=C1C=CC(=O)c2c(O)cccc21` has an IC50 of 275 µM (cell growth or viability, MTT).
`C[C@H]1O[C@@H](O[C@H]2CC[C@@]3(C)[C@H](CC[C@@H]4[C@@H]3CC[C@]3(C)[C@@H](C5=CC(=O)OC5)[C@@H](O)C[C@]43O)C2)C[C@H](O)[C@@H]1O[C@@H]1O[C@H](CO)[C@@H](O)[C@H](O)[C@H]1O` gave an inhibition of 75.9% (cell growth or viability, MTT; 5 µM, 24 h).
For `CC(C)Cc1ccc(C(C)C(=O)[O-])cc1.CC(C)Cc1ccc(C(C)C(=O)[O-])cc1.O.[Cu+2].c1ccncc1.c1ccncc1` (stereo not shown), “total growth inhibition (TGI)” read 40 ± 2.8 µM (MTT; 48 h).
The selectivity ratio of `CSCC[C@H](NC(=O)[C@@H](NC(=O)[C@H](CCC(N)=O)NC(=O)[C@H](CO)NC(=O)[C@@H](N)C(C)C)[C@@H](C)O)C(=O)N[C@@H](CCCNC(=N)N)C(=O)N[C@@H](CCC(N)=O)C(=O)N[C@H](C(=O)N[C@@H](C)C(=O)N[C@H](C(=O)N1CCC[C@H]1C(=O)N[C@@H](CC(C)C)C(=O)N[C@@H](CC(C)C)C(=O)N[C@@H](Cc1c[nH]c2ccccc12)C(=O)N[C@@H](Cc1ccccc1)C(=O)N[C@@H](Cc1c[nH]c2ccccc12)C(=O)N[C@H](C(=O)NCC(=O)N[C@@H](CO)C(=O)N[C@@H](CC(C)C)C(=O)NCCOCCOCCOCCOCCOCCOCCOCCOCCOCCOCCOCCOCCC(=O)N[C@@H](CS)C(N)=O)[C@@H](C)O)C(C)C)[C@@H](C)O` is reported as 12 ± 2.8 (phage binding; baseline: targeting over control phage).

Excerpt of the above:
For `CC(C)Cc1ccc(C(C)C(=O)[O-])cc1.CC(C)Cc1ccc(C(C)C(=O)[O-])cc1.O.[Cu+2].c1ccncc1.c1ccncc1` (stereo not shown), “total growth inhibition (TGI)” read 40 ± 2.8 µM (MTT; 48 h).
The selectivity ratio of `CSCC[C@H](NC(=O)[C@@H](NC(=O)[C@H](CCC(N)=O)NC(=O)[C@H](CO)NC(=O)[C@@H](N)C(C)C)[C@@H](C)O)C(=O)N[C@@H](CCCNC(=N)N)C(=O)N[C@@H](CCC(N)=O)C(=O)N[C@H](C(=O)N[C@@H](C)C(=O)N[C@H](C(=O)N1CCC[C@H]1C(=O)N[C@@H](CC(C)C)C(=O)N[C@@H](CC(C)C)C(=O)N[C@@H](Cc1c[nH]c2ccccc12)C(=O)N[C@@H](Cc1ccccc1)C(=O)N[C@@H](Cc1c[nH]c2ccccc12)C(=O)N[C@H](C(=O)NCC(=O)N[C@@H](CO)C(=O)N[C@@H](CC(C)C)C(=O)NCCOCCOCCOCCOCCOCCOCCOCCOCCOCCOCCOCCOCCC(=O)N[C@@H](CS)C(N)=O)[C@@H](C)O)C(C)C)[C@@H](C)O` is reported as 12 ± 2.8 (phage binding; baseline: targeting over control phage).
